{"data": "Assay results of several laboratories", "note": "Parts stem from different laboratories: compare values within a part only."}
{"data": "Sample 1", "target": "RNA binding protein fox-1 homolog 2, RRM domain, GST-SBP tag (RBFOX2, Homo sapiens, UniProt O43251-10, residues 100-194)", "technique": "RNA Bind-n-Seq", "form": "RNA", "medium": "in vitro", "concentration": "365 nM", "setting": "natural RNA segment, single round, ends assumed", "reference": "no-protein control", "direction": "higher = stronger binding", "Construct (chain)": "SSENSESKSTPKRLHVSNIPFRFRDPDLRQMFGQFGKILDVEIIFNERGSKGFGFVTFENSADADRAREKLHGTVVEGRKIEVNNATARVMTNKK"}
{"Sequence": "GGGAGUUCUACAGUCCGACGAUCCUCGUUUUUCACGCUGGCUUUGUUUCAGAGGUAUACUGACUCCAGUGGUGUCAGGAUGAGGUGGCCCCUGGCUUUCUGGUUCACAACAAGCUAGAGAUUUUCAAAGCUACUGGAAUUCUCGGGUGCCAA", "RBNS enrichment (R)": 0.324}
{"Sequence": "GGGAGUUCUACAGUCCGACGAUCAUUGGAAAUUUCACGUCAUAGGAAGUUAGCCUUUAUCUACCAACUUUCAAGAACUUGUUUAAUAAAGCGAAAAACUCAACCAAAUGGUACAAAACCACAGUGUACCAUUAUGGAAUUCUCGGGUGCCAA", "RBNS enrichment (R)": 0.303}
{"Sequence": "GGGAGUUCUACAGUCCGACGAUCCCACCCCUACCCAGCGAGAACAGUUUUUAAUGAAAACUGAGCUAGAUUGUCCAGUUCUGGUAAACAGUCUUCCAGUCAUCUCACAACCAUUAUUACAACCAUGUACAAAGUGGAAUUCUCGGGUGCCAA", "RBNS enrichment (R)": 0.269}
{"Sequence": "GGGAGUUCUACAGUCCGACGAUCCAUUACUUUUGAAAUUUGCAGGACGAAGGGCAUGCUUUUGGUUUGCUGUAAGAUUGUAUUCUGUAUAUAUGUUUUCAUGUAAAUAAAUGAAAAUCUAUAUCAGAGUUAUAUGGAAUUCUCGGGUGCCAA", "RBNS enrichment (R)": 4.84}
{"data": "Sample 2", "target": "Sal-like protein 4, full length isoform A (SALL4, Homo sapiens, UniProt Q9UJQ4, residues 1-1053)", "technique": "universal PBM", "form": "double-stranded DNA, one strand shown", "medium": "in vitro", "concentration": "600 nM", "setting": "8-mer, flanks averaged, mean of replicates", "direction": "higher = stronger binding", "chain of UniProt Q9UJQ4 (whole entry, looked up)": "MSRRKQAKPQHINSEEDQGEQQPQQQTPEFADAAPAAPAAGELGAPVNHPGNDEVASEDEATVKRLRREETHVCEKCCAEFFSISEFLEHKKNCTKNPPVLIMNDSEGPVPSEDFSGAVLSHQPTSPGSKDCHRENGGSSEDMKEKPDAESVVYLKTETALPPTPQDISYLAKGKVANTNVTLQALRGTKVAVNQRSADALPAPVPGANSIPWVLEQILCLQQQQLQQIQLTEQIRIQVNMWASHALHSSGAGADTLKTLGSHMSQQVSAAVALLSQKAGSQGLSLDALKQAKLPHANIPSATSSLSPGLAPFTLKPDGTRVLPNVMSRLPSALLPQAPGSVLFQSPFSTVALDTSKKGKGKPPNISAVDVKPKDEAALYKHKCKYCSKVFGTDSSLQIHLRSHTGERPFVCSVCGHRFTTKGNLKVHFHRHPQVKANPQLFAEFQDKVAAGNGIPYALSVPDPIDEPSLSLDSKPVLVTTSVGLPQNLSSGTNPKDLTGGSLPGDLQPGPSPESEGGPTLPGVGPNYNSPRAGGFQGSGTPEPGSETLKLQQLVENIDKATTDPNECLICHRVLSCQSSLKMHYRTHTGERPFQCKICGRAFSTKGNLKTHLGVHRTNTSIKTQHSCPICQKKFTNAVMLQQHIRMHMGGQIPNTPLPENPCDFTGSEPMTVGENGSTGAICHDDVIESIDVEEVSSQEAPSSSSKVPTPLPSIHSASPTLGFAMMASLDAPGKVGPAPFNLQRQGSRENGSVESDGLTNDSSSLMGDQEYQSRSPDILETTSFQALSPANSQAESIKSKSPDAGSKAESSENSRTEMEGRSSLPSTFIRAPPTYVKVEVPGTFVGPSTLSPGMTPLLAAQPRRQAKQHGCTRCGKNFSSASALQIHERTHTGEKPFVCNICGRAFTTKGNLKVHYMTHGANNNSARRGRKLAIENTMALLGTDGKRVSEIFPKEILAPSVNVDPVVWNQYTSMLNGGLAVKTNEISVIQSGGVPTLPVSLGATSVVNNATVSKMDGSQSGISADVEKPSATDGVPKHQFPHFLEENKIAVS"}
{"Sequence": "GAAGAGCC", "E-score": -0.268}
{"Sequence": "AACTAACT", "E-score": 0.00924}
{"Sequence": "GCCCGAAC", "E-score": -0.184}
{"Sequence": "TGCAAACA", "E-score": 0.152}
{"Sequence": "ATTGTGTG", "E-score": 0.0414}
{"Sequence": "GGTGAGAA", "E-score": 0.0344}
{"data": "Sample 3", "target": "Transcriptional repressor CTCF (CTCF, Homo sapiens, UniProt P49711, residues 1-727, full length assumed)", "technique": "protein-binding microarray", "form": "double-stranded DNA, one strand shown", "medium": "in vitro", "concentration": "not given", "setting": "k-mer, scored over probes, only values ≥0.25", "direction": "higher = stronger binding", "Target sequence (chain)": "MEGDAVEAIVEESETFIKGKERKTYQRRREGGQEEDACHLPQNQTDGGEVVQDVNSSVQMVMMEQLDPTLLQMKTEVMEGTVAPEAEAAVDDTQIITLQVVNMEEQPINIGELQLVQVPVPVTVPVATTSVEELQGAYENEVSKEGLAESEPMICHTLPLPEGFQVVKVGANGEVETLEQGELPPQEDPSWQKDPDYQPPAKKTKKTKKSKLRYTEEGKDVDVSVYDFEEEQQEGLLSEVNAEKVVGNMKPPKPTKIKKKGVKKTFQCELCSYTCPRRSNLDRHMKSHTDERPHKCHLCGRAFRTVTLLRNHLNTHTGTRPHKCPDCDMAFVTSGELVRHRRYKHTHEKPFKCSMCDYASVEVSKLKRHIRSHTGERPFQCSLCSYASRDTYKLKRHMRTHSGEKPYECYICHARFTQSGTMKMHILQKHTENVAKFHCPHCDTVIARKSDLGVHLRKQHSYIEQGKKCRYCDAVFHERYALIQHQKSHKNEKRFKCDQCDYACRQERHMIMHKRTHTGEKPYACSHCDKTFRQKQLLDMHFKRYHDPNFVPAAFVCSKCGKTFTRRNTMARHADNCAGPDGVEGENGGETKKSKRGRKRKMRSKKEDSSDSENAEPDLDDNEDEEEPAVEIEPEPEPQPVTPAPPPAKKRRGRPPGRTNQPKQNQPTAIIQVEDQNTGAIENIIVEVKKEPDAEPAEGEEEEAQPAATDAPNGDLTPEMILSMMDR"}
{"Sequence": "AAGGCCGT", "E-score": 0.321}
{"Sequence": "TAACAGCA", "E-score": 0.262}
{"Sequence": "CATTACTA", "E-score": 0.354}
{"Sequence": "ATAATTAT", "E-score": 0.369}
{"data": "Other studies, line by line"}
{"Molecule": "PhoQ, residues 284 288 289 292 302 303 SSLVEF", "target": "PhoP, residues 12 14 15 18 19 QWHVF (Escherichia coli, UniProt P23836)", "test": "Sort-seq, refers to: YFP reporter", "test system": "E. coli", "conditions": "PhoQ-PhoP variant library, with: 10 µM Mg2+", "how to read": "reference: high Mg2+ state, higher = stronger signaling", "quantity": "fold induction", "value": 4.46}
{"note": "Excerpt of the above (sample 2):"}
{"Sequence": "GCCCGAAC", "E-score": -0.184}
